Measurements gathered from unrelated publications.
Compare with care: the assays were run in different laboratories. “And” joins repeats or separate records; there may be more than shown.

C=CCN1CCC23c4c5ccc(OC(=O)c6ccccc6)c4OC2C(=O)CCC3(O)C1C5 (stereo not drawn)
remaining compound (rat plasma; 0.5 h, together with: loperamide 100 µM): 13.1% and 11% and 11.7%

CC(C)[C@@H]1NC(=O)CNC(=O)[C@H](CC(N)=O)NC(=O)[C@H](CCCNC(=N)N)NC(=O)[C@H](Cc2ccc(O)cc2)NC(=O)[C@H](C(C)C)NC(=O)[C@@H](NC(=O)[C@@H](NC(=O)[C@H](CC(N)=O)NC(=O)[C@H](Cc2c[nH]c3ccccc23)NC(=O)[C@H](C)NC(=O)[C@H](Cc2ccccc2)NC(=O)CNC(=O)[C@H](CCCCN)NC(=O)[C@H](Cc2ccccc2)NC(=O)[C@H](Cc2ccccc2)NC(=O)[C@H](CCCCN)NC(=O)OCC2c3ccccc3-c3ccccc32)C(C)C)CSSC[C@@H](C(=O)N[C@@H](Cc2c[nH]cn2)C(=O)N[C@@H](CCCNC(=N)N)C(=O)N[C@@H](CCCNC(=N)N)C(=O)N[C@@H](C)C(=O)N[C@@H](CC(N)=O)C(N)=O)NC(=O)[C@H](C(C)C)NC(=O)[C@H](CCCNC(=N)N)NC1=O
remaining peptide (HPLC; mouse mammary gland homogenate; 2560 µM, 20.00 h, 37 °C, 50 mg/mL tissue): 55.1% and 53.8% and 49%

C=CCN1CCC23c4c5ccc(OC(=O)c6ccc(NC(=O)OC(C)(C)C)cc6)c4OC2C(=O)CCC3(O)C1C5 (stereo not drawn)
remaining compound (human plasma; 4 h): 83.1% and 80.8% and 82.1%

CC[C@H](C)[C@H](NC(=O)[C@@H](NC(=O)[C@H](CCCCN)NC(=O)[C@@H](NC(=O)CNC(=O)[C@@H](N)CCCNC(=N)N)[C@@H](C)O)C(C)C)C(=O)N[C@@H](CC(C)C)C(=O)N[C@@H](Cc1c[nH]cn1)C(=O)N[C@@H](CC(C)C)C(N)=O
remaining intact peptide (LC-MS; pronase digest; 200 µM, 30 min, pH 7.5, 37 °C, together with: pronase 2.5 µg/mL): 0%

C#Cc1c(F)ccc2cc(O)cc(-c3ncc4c(N5CC6CCC(C5)N6C(=O)OC(C)OC(=O)C(C)C)nc(OC[C@@]56CCCN5C[C@H](F)C6)nc4c3F)c12 (stereo partly drawn)
remaining prodrug (simulated gastric fluid; 1 µM, 30 min, 37 °C): 97.6%

Cc1nnc(-c2ccc(CC(=O)NCCCC[C@H](NC(=O)c3ccc(OCc4ccc(B(O)O)cc4)c(-c4nc5ccccc5c(=O)[nH]4)c3)C(=O)NCC(=O)NCC(=O)NCC(=O)N[C@@H](Cc3ccccc3)C(=O)N[C@@H](Cc3ccccc3)C(=O)O)cc2)nn1
remaining compound (UPLC-MS/MS; human serum; 100 µM, 0.083 h, 37 °C): 93.2% and 102%

CSCC[C@H](NC(=O)[C@H](CCCNC(=N)N)NC(=O)[C@H](CCCNC(=N)N)NC(=O)[C@H](CCCCN)NC(=O)[C@H](C)NC(=O)[C@H](CCCNC(=N)N)NC(=O)CNC(=O)[C@@H](N)[C@@H](C)O)C(=O)N[C@@H](CCC(N)=O)C(=O)N[C@@H](Cc1ccc(O)cc1)C(=O)N[C@@H](CC(N)=O)C(=O)N[C@@H](CCCNC(=N)N)C(=O)N[C@@H](CCCNC(=N)N)C(N)=O
remaining peptide (HPLC peak area; 50% human serum; 100 µM, 6 h, pH 7.4, 37 °C; relative to: 0 h): 13.2% and 14.4% and 10.9%

C=CCN1CCC23c4c5ccc(OC(=O)c6ccc(N)cc6)c4OC2C(=O)CCC3(O)C1C5 (stereo not drawn)
remaining compound (rat plasma; 0 h, together with: digitonin 100 µM): 102% and 99.1% and 98.3%

C#Cc1c(F)ccc2cc(O)cc(-c3ncc4c(N5CC6CCC(C5)N6C(=O)OC(C)OC(=O)CC)nc(OC[C@@]56CCCN5C[C@H](F)C6)nc4c3F)c12 (stereo partly drawn)
remaining prodrug (simulated gastric fluid; 1 µM, 30 min, 37 °C): 95.9%

Excerpt of the above:
C#Cc1c(F)ccc2cc(O)cc(-c3ncc4c(N5CC6CCC(C5)N6C(=O)OC(C)OC(=O)C(C)C)nc(OC[C@@]56CCCN5C[C@H](F)C6)nc4c3F)c12 (stereo partly drawn)
remaining prodrug (simulated gastric fluid; 1 µM, 30 min, 37 °C): 97.6%

Cc1nnc(-c2ccc(CC(=O)NCCCC[C@H](NC(=O)c3ccc(OCc4ccc(B(O)O)cc4)c(-c4nc5ccccc5c(=O)[nH]4)c3)C(=O)NCC(=O)NCC(=O)NCC(=O)N[C@@H](Cc3ccccc3)C(=O)N[C@@H](Cc3ccccc3)C(=O)O)cc2)nn1
remaining compound (UPLC-MS/MS; human serum; 100 µM, 0.083 h, 37 °C): 93.2% and 102%
